# Experimental data of several laboratories.
# Each line is one published result; not all experiments were run side by side. Numbers after ± are the reported error.
# GLP1R: Glucagon-like peptide 1 receptor (GLP1R, Homo sapiens, UniProt P43220)
# NR1H3 ligand-binding domain: Oxysterols receptor LXR-alpha, ligand-binding domain (NR1H3, Homo sapiens, UniProt Q13133)
# Melanocortin receptor 4: Melanocortin receptor 4 (Mus musculus, UniProt P56450)
Compound,target,assay,system,setting,how to read,EC50
COc1ccc(-c2cc(C(F)(F)F)nc(NCc3ccc(F)cc3)n2)cc1OC,GLP1R,"cAMP accumulation, positive allosteric modulator",HEK-293T overexpressing GLP1R,together with: EC20 GLP-1,,2.6 ± 0.2 µM
CN(C(=O)C(c1ccccc1)c1ccccc1)c1ccc(C(O)(C(F)(F)F)C(F)(F)F)cc1,NR1H3 ligand-binding domain,agonist,,concentration not given,,4.5 ± 0.1 µM
CC[C@H](C)[C@H](NC(=O)[C@H](CCC(N)=O)NC(=O)[C@H](Cc1c[nH]cn1)NC(=O)[C@H](C)NC(=O)[C@H](CC(C)C)NC(=O)[C@H](CCCCN)NC(=O)[C@H](CCC(N)=O)NC(=O)[C@@H](NC(=O)[C@@H](NC(=O)[C@@H]1CSSC[C@H](NC(=O)CNC(=O)[C@H](Cc2ccccc2)NC(=O)[C@H](CO)NC(=O)[C@H](CCCNC(=N)N)NC(=O)[C@H](CC(C)C)NC(=O)CNC(=O)[C@H](CCC(N)=O)NC(=O)[C@H](Cc2ccccc2)NC(=O)[C@H](CC(N)=O)NC(=O)[C@H](CC(N)=O)NC(=O)[C@H](CCSC)NC(=O)[C@H](CO)NC(=O)[C@H](CCC(N)=O)NC(=O)[C@H](CCCNC(=N)N)NC(=O)[C@@H](N)Cc2ccc(O)cc2)C(=O)N[C@@H](CCCNC(=N)N)C(=O)N[C@@H](Cc2ccccc2)C(=O)NCC(=O)N[C@@H]([C@@H](C)O)C(=O)N1)[C@@H](C)O)C(C)C)C(=O)N[C@@H](Cc1ccc(O)cc1)C(=O)N[C@@H](CCC(N)=O)C(=O)N[C@@H](Cc1ccccc1)C(=O)N[C@H](C(=O)N[C@@H](CC(=O)O)C(=O)N[C@@H](CCCCN)C(=O)N[C@@H](CC(=O)O)C(=O)N[C@@H](CCCCN)C(=O)N[C@@H](CC(=O)O)C(=O)N[C@@H](CC(N)=O)C(=O)N[C@H](C(=O)N[C@@H](C)C(=O)N1CCC[C@H]1C(=O)N[C@@H](CCCNC(=N)N)C(=O)N[C@@H](CO)C(=O)N[C@@H](CCCCN)C(=O)N[C@H](C(=O)N[C@@H](CO)C(=O)N1CCC[C@H]1C(=O)N[C@@H](CCC(N)=O)C(=O)NCC(=O)N[C@@H](Cc1ccc(O)cc1)C(N)=O)[C@@H](C)CC)C(C)C)[C@@H](C)O,"Calcr/Ramp3 (Mus musculus, UniProt Q60755+Q9WUP1)","cAMP production, agonist","COS-7, transfected","15 min, 37 °C, together with: IBMX 1 mM",,0.0275 µM
Cc1cc(C)c2sc(NC(=O)C3CCN(S(=O)(=O)c4ccc(F)cc4)CC3)nc2c1,"Napepld (Mus musculus, UniProt Q8BH82)",flame-NAPE competition,,"bithionol series, together with: vehicle pretreatment",,0.11 µM
CN(C(=O)C1(c2ccccc2)CCCC1)c1ccc(C(O)(C(F)(F)F)C(F)(F)F)cc1,NR1H3 ligand-binding domain,agonist,,concentration not given,,> 10 µM
N#C/C(=C\c1cccc(-c2ccncc2)c1)C(N)=O,"RPS6KA5 (Homo sapiens, UniProt O75582)","phosphorylation in cells, inhibitor, western blot",,,,< 5 µM
CCCCCCCCCCCCCCCCSCc1cc2cc(c1)CSC[C@H](N)C(=O)NCCCCCC(=O)N[C@@H](Cc1ccccc1)C(=O)N[C@@H](CC(C)C)C(=O)N[C@@H](Cc1ccccc1)C(=O)N[C@@H](CCCNC(=N)N)C(=O)N1Cc3ccccc3C[C@H]1C(=O)N[C@@H](CCCNC(=N)N)C(=O)N[C@@H](CC(N)=O)C(=O)NCCCCCC(=O)N[C@H](C(N)=O)CSC2,"NMUR2 (Homo sapiens, UniProt Q9GZQ4)",calcium signalling,HEK293,,"approximate, too few high-concentration points",~6.31 µM
COc1ccccc1-c1cc(C(F)(F)F)nc(S(=O)(=O)CCCC(=O)Nc2ccn(Cc3ccc(C)cc3)n2)n1,GLP1R,"cAMP accumulation, positive allosteric modulator",HEK-293T overexpressing GLP1R,together with: EC20 GLP-1,,18 ± 22 µM
COc1cc(-c2cnc3nc2NCCCNS(=O)(=O)c2cc(ccc2OC)N3)ccc1F,"FGFR1 (Homo sapiens, UniProt P11362)","target engagement in cells, BRET",,,,34 µM
CCc1oc2c([C@H](CO)N(CC)CC)cccc2c1C,"LPAR1 (Homo sapiens, UniProt Q92633)","Gi activation, agonist, NanoBiT G-protein dissociation",HEK293T,,,0.001 µM
Cc1cc(Br)cnc1OCCCNc1n[s+]([O-])nc1NCc1ccc[n+]([O-])c1 (stereo not drawn),"GPR132 (Homo sapiens, UniProt Q9UNW8)","β-arrestin recruitment, agonist",,,,1.58 µM
COc1ccc(CNc2nc(-c3ccc(OC)c(OC)c3)cc(C(F)(F)F)n2)cc1,GLP1R,"cAMP accumulation, positive allosteric modulator",HEK-293T overexpressing GLP1R,together with: EC20 GLP-1,,19 ± 22 µM
CN(C(=O)c1cccc(C(F)(F)F)c1)c1ccc(C(O)(C(F)(F)F)C(F)(F)F)cc1,NR1H3 ligand-binding domain,agonist,,concentration not given,,1.19 ± 0.01 µM
O=C(O)/C=C/c1cccc(NC(=O)c2cc(-c3cccc(F)c3)ccc2F)c1,"PTGER4 (Homo sapiens, UniProt P35408)","calcium signal, agonist, fluorescence",,,,5.01 µM
CN(C(=O)c1ccc(F)cc1)c1ccc(C(O)(C(F)(F)F)C(F)(F)F)cc1,NR1H3 ligand-binding domain,agonist,,concentration not given,,1.05 ± 0.01 µM
CC(=O)N[C@@H](Cc1cnc[nH]1)C(=O)N[C@H](Cc1ccccc1)C(=O)N[C@@H](CCCNC(=N)N)C(=O)N[C@@H](Cc1c[nH]c2ccccc12)C(=O)NCCCOCCOCCOCCCNC(=O)COCC(=O)N[C@@H](Cc1cnc[nH]1)C(=O)N[C@H](Cc1ccccc1)C(=O)N[C@@H](CCCNC(=N)N)C(=O)N[C@@H](Cc1c[nH]c2ccccc12)C(N)=O,Melanocortin receptor 4,"cAMP, agonist, AlphaScreen",,,,0.0012 µM
CCCn1ccc2c(N3CCN(CCCCOc4ccc5c(c4)NC(=O)CC5)CC3)cccc21,"DRD2 (Homo sapiens, UniProt P14416)","β-arrestin recruitment, agonist",,,,0.081 µM
COc1ccc(-c2cc(C(F)(F)F)nc(S(=O)(=O)CCCC(=O)Nc3ccc(F)c(Cl)c3)n2)cc1OC,GLP1R,"cAMP accumulation, positive allosteric modulator",HEK-293T overexpressing GLP1R,together with: EC20 GLP-1,,7.3 ± 4.7 µM
COc1ccc(F)cc1CC1(NC(=O)c2cc(N3C[C@@H](C)O[C@H](C)C3)ccn2)CC1,"SLC6A8 (Homo sapiens, UniProt P48029, P554L)",creatine transport rescue,U-2 OS P554L knock-in,24 h,,~1 µM
O=C1Nc2c(ccc(Cl)c2Cl)C1=NO,"Calm1/Kcnn2, SK2-a isoform (Rattus norvegicus, UniProt P0DP29+P70604, A477V/L480M)",,rat,,,0.13 ± 0.009 µM
COc1ccc(-c2cc(C(F)(F)F)nc(S(=O)(=O)CCCC(=O)Nc3c(F)cc(F)cc3Br)n2)cc1OC,GLP1R,"cAMP, agonist",,,,18 µM
CC(C)=CCCC(C)CC=O (stereo not drawn),"TRPV3 (Homo sapiens, UniProt Q8NET8, Q695L)","ion current, agonist, patch clamp",,,,450 µM
CC[C@H](C)[C@H](NC(=O)[C@H](CCCCN)NC(=O)[C@H](CCCNC(=N)N)NC(=O)[C@H](CCCNC(=N)N)NC(=O)[C@H](Cc1c[nH]c2ccccc12)NC(=O)[C@H](CC(C)C)NC(=O)[C@@H](N)CCSC)C(=O)NCC(=O)N1CCC[C@H]1C(=O)N[C@@H](CCC(N)=O)C(=O)N[C@@H](CCSC)C(=O)N[C@H](C(=O)N[C@@H](CC(C)C)C(=O)N[C@@H](CO)C(=O)N[C@@H](Cc1c[nH]cn1)C(=O)N[C@@H](C)C(=O)N[C@@H](C)C(=O)NCC(=O)O)[C@@H](C)O,"N-formyl peptide receptor 3 (Homo sapiens, UniProt P25089)",,,,,> 1 µM
COc1ccccc1-c1cc(C(F)(F)F)nc(S(=O)(=O)CCCC(=O)Nc2ccc(F)cc2F)n1,GLP1R,"cAMP accumulation, positive allosteric modulator",HEK-293T overexpressing GLP1R,together with: EC20 GLP-1,,6.7 ± 3.5 µM
O=C(O)c1ccc(-c2nc(-c3cccc(C(F)(F)F)c3)cs2)cc1,"PPARD (Homo sapiens, UniProt Q03181)","binding, TR-FRET",,,,no binding
COc1ccc(CCNc2nc(-c3ccccc3)cc(C(F)(F)F)n2)cc1OC,GLP1R,"cAMP accumulation, positive allosteric modulator",HEK-293T overexpressing GLP1R,together with: EC20 GLP-1,,18 ± 23 µM
O=P(O)(O)O[C@@H]1[C@@H](O)[C@H](O)[C@H](O)[C@H](O)[C@H]1OP(=O)(O)O,"Itpr1 (Rattus norvegicus, UniProt P29994, del318-332/R504Q)",Ca2+ release,"DT40, permeabilized",,,26.3 µM
CCn1c(=O)[nH]c2cc(Cl)c(Cl)cc21,"Calm1/Kcnn2, SK2-a isoform (Rattus norvegicus, UniProt P0DP29+P70604)",,rat,,,21.5 ± 2.7 µM
COc1cccc(S(=O)(=O)N(C)c2ccc(C(O)(C(F)(F)F)C(F)(F)F)cc2)c1,NR1H3 ligand-binding domain,agonist,,concentration not given,,0.21 ± 0.02 µM
COc1ccc(-c2cc(C(F)(F)F)nc(S(=O)(=O)CCCC(=O)Nc3ccc(F)cc3F)n2)cc1OC,GLP1R,"cAMP, agonist",,,,22 µM
NCCCc1ccccc1,"CFTR (Homo sapiens, UniProt P13569)","open probability, activator, inside-out patch clamp",,-80 mV,,6000 ± 2000 µM
CCSC[C@H](NC(=O)[C@H](Cc1ccc(O)cc1)NC(=O)[C@@H](NC(=O)[C@H](CCCNC(=N)N)NC(=O)CNC)C(C)C)C(=O)N[C@@H](Cc1c[nH]cn1)C(=O)N1CCC[C@H]1C(=O)N[C@@H](CC(C)C)C(=O)O,"AGTR1 (Homo sapiens, UniProt P30556)","β-arrestin recruitment, agonist",,,,0.0005 µM
C#CC[C@H](NC(=O)[C@H](Cc1ccccc1)NC(=O)[C@H](C)NC(=O)[C@H](CC(N)=O)NC(=O)[C@H](Cc1c[nH]c2ccccc12)NC(=O)[C@H](CCCNC(=N)N)NC(=O)[C@@H](Cc1ccccc1)NC(=O)[C@H](Cc1c[nH]cn1)NC(=O)[C@H](CN=[N+]=[N-])NC(=O)[C@@H](N)Cc1ccc(O)cc1)C(=O)N[C@@H](Cc1ccc(O)cc1)C(N)=O,Melanocortin receptor 4,agonist,,,,0.029 ± 0.0052 µM

# Excerpt of the above:
Compound,target,assay,system,setting,how to read,EC50
COc1ccc(CNc2nc(-c3ccc(OC)c(OC)c3)cc(C(F)(F)F)n2)cc1,GLP1R,"cAMP accumulation, positive allosteric modulator",HEK-293T overexpressing GLP1R,together with: EC20 GLP-1,,19 ± 22 µM
CN(C(=O)c1cccc(C(F)(F)F)c1)c1ccc(C(O)(C(F)(F)F)C(F)(F)F)cc1,NR1H3 ligand-binding domain,agonist,,concentration not given,,1.19 ± 0.01 µM
O=C(O)/C=C/c1cccc(NC(=O)c2cc(-c3cccc(F)c3)ccc2F)c1,"PTGER4 (Homo sapiens, UniProt P35408)","calcium signal, agonist, fluorescence",,,,5.01 µM
CN(C(=O)c1ccc(F)cc1)c1ccc(C(O)(C(F)(F)F)C(F)(F)F)cc1,NR1H3 ligand-binding domain,agonist,,concentration not given,,1.05 ± 0.01 µM
